Measurements pooled from the literature.
Lines come from different studies, so protocols differ. “And” joins repeats or separate records; there may be more than shown. ± gives the spread as reported.

CCCCn1cc(C(=O)O)c(=O)c2cc(F)c3c(nnn3-c3cccc(Cl)c3)c21 — IC50 (SW-620; cell growth or viability, SRB): 110 µM
CC(=O)N[C@@H](CC(=O)O)C(=O)N[C@@H](CCC(=O)O)C(=O)N[C@@H](CC(=O)O)C(=O)N[C@H](C(=O)NCC(=O)NCC(=O)NCC(=O)NCCNC(=O)OCC1c2ccccc2-c2ccccc21)C(C)C — apoptotic level (HepG2; western blot, refers to: cleaved PARP; 400 µM, 72 h; reference: 10 µM camptothecin): 58%
NC(=O)c1ccc(C(=O)NOCc2ccc(Sc3cccc(Cl)c3)c(C(F)(F)F)c2)cc1 — cytotoxicity (L3.6pl cells (human); CCK-8; 100 µM): not toxic
CC(=O)Oc1ccc(Cn2ccc(=O)[nH]c2=O)cc1C1OC(c2cccc(Cl)c2)=NN1C(C)=O (stereo not drawn) — minimum cytotoxic concentration (HEL fibroblasts; cell morphology alteration): 100 µM
CC(C)C[C@@H]1NC(=O)[C@@H](Cc2c[nH]c3ccccc23)NC(=O)[C@H](CCCNC(=N)N)NC(=O)[C@@H](CCC(=O)O)NC(=O)[C@H](CCC(N)=O)NC(=O)[C@@H](CCC(=O)O)NC(=O)[C@H](CCCNC(=N)N)NC(=O)[C@@H](Cc2c[nH]c3ccccc23)NC1=O — HD50 (erythrocytes; hemolysis): > 660 µM
CC(C)c1ccc(/C=C/C(=O)N[C@@H]2O[C@H](CO)[C@@H](O)[C@H](O)[C@H]2O)cc1 — minimal cytotoxic concentration (HEL fibroblasts; cell morphology; 3 days): > 100 µM
CC(C)(C)c1ccc(Nc2c3c(nc4ccccc24)CCCC3)cc1 — inhibition (HepG2; MTT; 50 µM, 24 h, 10% FBS): -30.9 ± 1.54%
Cc1ccc(C(C)C)cc1.Cn1ccnc1CNCCNc1ccnc2cc(Cl)ccc12.[Cl-].[Cl][Ru+] — cytotoxicity (CHO; MTT; concentration not given, highest tested concentration): not toxic
CC(C)c1ccc(C[C@H](C)C(=O)NC(=O)N[C@@H]2O[C@H](CO)[C@@H](O)[C@H](O)[C@H]2O)cc1 — minimal cytotoxic concentration (HEL fibroblasts; cell morphology; 3 days): > 100 µM
CC[C@H](C)[C@H](NC(=O)[C@H](CCCCN)NC(=O)[C@H](C)NC(=O)[C@H](CCCNC(=N)N)NC(=O)[C@H](CCCCN)NC(=O)[C@H](CC(N)=O)NC(=O)[C@H](CCC(N)=O)NC(=O)[C@H](Cc1ccccc1)NC(=O)[C@H](Cc1c[nH]c2ccccc12)NC(=O)[C@@H](NC(=O)[C@H](CCCCN)NC(=O)[C@@H](NC(=O)[C@H](CCC(N)=O)NC(=O)[C@H](CO)NC(=O)[C@H](CCCNC(=N)N)NC(=O)[C@@H]1CCCN1C(=O)[C@H](CCCNC(=N)N)NC(=O)[C@H](CCCCN)NC(=O)[C@H](CC(=O)O)NC(=O)[C@H](CCC(=O)O)NC(=O)[C@H](CCCCN)NC(=O)[C@H](CC(N)=O)NC(=O)[C@@H]1CCCN1C(=O)[C@H](CC(N)=O)NC(=O)[C@H](CCCCN)NC(=O)[C@H](CCCCN)NC(=O)[C@H](CCCCN)NC(=O)[C@@H]1CCCN1C(=O)[C@H](CCCCN)NC(=O)[C@H](CCCNC(=N)N)NC(=O)[C@H](CO)NC(=O)[C@H](CCCNC(=N)N)NC(=O)CNC(=O)CNC(=O)CNC(=O)CNC(=O)CNC(=O)CCCC[C@@H]1SC[C@@H]2NC(=O)N[C@@H]21)[C@@H](C)CC)[C@@H](C)CC)C(=O)N[C@@H](CCCCN)C(=O)N[C@@H](CCCCN)C(N)=O — cellular uptake (CHO pgsA-745 (GAG-deficient); MALDI-TOF MS; 7 µM, 1 h, together with: heparin up to 7.2 µg/mL): ~20 pmol
CCCCn1cc(C(=O)O)c(=O)c2cc(F)c(Nc3cccc(Cl)c3)c(N)c21 — IC50 (SW-620; cell growth or viability, SRB): < 10 µM and 9.19 µM and 9.2 µM
CC=C(C)C(=O)OC1C(OC(=O)C=Cc2ccccc2)C2COC(=O)CCC(=O)CCCCCCC(CCCCC)OC3OC(C)C(OC(C)=O)C(OC(C)=O)C3OC(O2)C1OC(C)=O (stereo not drawn) — IC50 (MDA-MB-231; cytotoxicity): > 10 µM
[Ga+3].[O-]c1ccc(Br)c2cccnc12.[O-]c1ccc(Br)c2cccnc12.[O-]c1ccc(Br)c2cccnc12 — cytotoxicity (HCT-116; MTT; 25 µM, 72 h): 95.2%
CSCC[C@H](N)C(=O)N[C@@H](CCC(=O)O)C(=O)N[C@H](C(=O)NCC(=O)N[C@@H](Cc1c[nH]c2ccccc12)C(=O)N[C@@H](Cc1ccc(O)cc1)C(=O)N[C@@H](CCCNC(N)=O)C(=O)N[C@@H](CO)C(=O)N1CCC[C@H]1C(=O)N[C@@H](Cc1ccccc1)C(=O)N[C@@H](CO)C(=O)N[C@@H](CCCNC(N)=O)C(=O)N[C@H](C(=O)N[C@H](C(=O)N[C@@H](Cc1c[nH]cn1)C(=O)N[C@@H](CC(C)C)C(=O)N[C@@H](Cc1ccc(O)cc1)C(=O)N[C@@H](CCCNC(=N)N)C(=O)N[C@@H](CC(N)=O)C(=O)NCC(=O)N[C@@H](CCCCN)C(N)=O)C(C)C)C(C)C)C(C)C — cytotoxic concentration (mouse bone marrow-derived dendritic cells; MTT): ≤ 10 µM
CC(=O)OC[C@H]1O[C@@H](NC(=O)[C@@H](C)Cc2ccc(C(C)C)cc2)[C@H](OC(C)=O)[C@@H](OC(C)=O)[C@@H]1OC(C)=O — minimal cytotoxic concentration (HEL fibroblasts; cell morphology; 3 days): > 100 µM
N=C(N)NCCC[C@@H]1NC(=O)[C@H](Cc2csc3ccccc23)NC(=O)[C@@H](Cc2ccccc2)NC(=O)[C@H](Cc2ccccc2)NC(=O)[C@H](CCC(=O)NCCOCCOCC(=O)N[C@@H](CCCCNC(=O)c2ccc3c(c2)C(=O)OC32c3ccc4cc(O)ccc4c3Oc3c2ccc2cc(O)ccc32)C(N)=O)NC(=O)[C@@H](CCCNC(=N)N)NC(=O)[C@H](CCCNC(=N)N)NC(=O)[C@@H](CCCNC(=N)N)NC1=O — cytosolic entry (HeLa; cell penetration, flow cytometry; 2.0 µM, 2 h, 1% FBS; reference: CPP12): 116 ± 5%
CC(=O)OC[C@H]1O[C@@H](NC(=O)NC(=O)/C=C/c2ccc(-c3ccccc3)cc2)[C@H](OC(C)=O)[C@@H](OC(C)=O)[C@@H]1OC(C)=O — minimal cytotoxic concentration (HEL fibroblasts; cell morphology; 3 days): > 100 µM
CC(C)C1=C[C@@]23CC[C@@H]4[C@](C)(CCC[C@@]4(C)C(=O)OCC#CCN4CCOCC4)[C@H]2C[C@@H]1[C@H]1C(=O)OC(=O)[C@H]13 — viability (BHK-21-hACE2; 20.0 µM, 48 (unit not given)): 91%
CC(=O)Oc1ccc(Cn2nc(C)c(=O)[nH]c2=O)cc1C1OC(c2cccc(Cl)c2)=NN1C(C)=O (stereo not drawn) — minimum cytotoxic concentration (HEL fibroblasts; cell morphology alteration): 100 µM
COc1c(OC(=O)N(C)c2cccc(Br)c2)cc2oc3cc4c(c(O)c3c(=O)c2c1CC=C(C)C)C=CC(C)(C)O4 — inhibition (PC-12; cell proliferation, MTT; 10 µM, 24 h): 3.1%
O=C(O[C@@H]1Cc2c(O)cc(O)cc2O[C@@H]1c1cc(O)c(O)c(O)c1)c1cc(O)c(O)c(O)c1 — cell death (U-87 MG; CCK-8; 50 µM, 24 h): 39.1%
CC(=O)Oc1ccc(Cn2cc(C)c(=O)[nH]c2=O)cc1C1OC(c2ccccc2)=NN1C(C)=O (stereo not drawn) — minimum cytotoxic concentration (HEL fibroblasts; cell morphology alteration): ≥ 20 µM
CCCCn1cc(C(=O)O)c(=O)c2cc(F)c(Nc3ccccc3Cl)c(N)c21 — IC50 (SW-620; cell growth or viability, SRB): 55 µM
CCCCCC1CCCCCCC(=O)CCC(=O)OCC2OC(OC3C(O1)OC(C)C(OC(C)=O)C3O)C(O)C(O)C2OC(=O)C=Cc1ccccc1 (stereo not drawn) — IC50 (MDA-MB-231; cytotoxicity): 6.85 µM
CC(=O)Oc1ccc(Cn2cc(F)c(=O)[nH]c2=O)cc1C1OC(c2ccc(Cl)cc2)=NN1C(C)=O (stereo not drawn) — minimum cytotoxic concentration (HEL fibroblasts; cell morphology alteration): 100 µM
O=C1C(O)=C(CN2CC3CCC2CC3)C(=O)c2ccccc21 — median lethal concentration (BGM (monkey kidney); MTT; 10% FCS; 24 h): ≥ 3360 µM
COc1ccccc1N(C)C(=O)Oc1cc2oc3cc4c(c(O)c3c(=O)c2c(CC=C(C)C)c1OC)C=CC(C)(C)O4 — inhibition (PC-12; cell proliferation, MTT; 10 µM, 24 h): 7.4%
CCc1ccc([C@H](C)CC(=O)N[C@@H]2O[C@H](COC(C)=O)[C@@H](OC(C)=O)[C@H](OC(C)=O)[C@H]2OC(C)=O)cc1 — minimal cytotoxic concentration (HEL fibroblasts; cell morphology; 3 days): > 100 µM
CCNS(=O)(=O)c1ccc(COc2ccc3nc4ccc(=O)cc-4oc3c2)cc1 — cell proliferation (MCF-10A; 1 µM): no effect
NCCCC[C@H](NC(=O)[C@H](Cc1ccc(O)cc1)NC(=O)[C@H](CCCCN)NC(=O)[C@H](Cc1c[nH]c2ccccc12)NC(=O)[C@H](Cc1ccccc1)NC(=O)[C@H](Cc1ccccc1)NC(=O)Cc1ccc(-c2ccccc2)cc1)C(=O)NCC(=O)N[C@@H](Cc1c[nH]cn1)C(=O)N1CCC[C@H]1C(=O)NCC(=O)NCC(=O)N1CCC[C@H]1C(=O)N[C@@H](CCC(N)=O)C(=O)N[C@@H](CC(=O)O)C(=O)N[C@@H](CC(=O)O)C(=O)N[C@@H](CC(=O)O)C(=O)N[C@@H](CC(=O)O)C(=O)N[C@@H](CC(=O)O)C(=O)N[C@@H](CC(=O)O)C(=O)O — cytotoxicity (mouse bone marrow macrophages; CCK-8; concentration not given, 24 h): not toxic
CCN(CC)CC#CCOC(=O)[C@]1(C)CCC[C@]2(C)[C@H]3C[C@H]4C(C(C)C)=C[C@]3(CC[C@H]21)[C@@H]1C(=O)OC(=O)[C@@H]14 — viability (BHK-21-hACE2; 20.0 µM, 48 (unit not given)): 148%
COc1ccnc(Nc2c3c(nc4ccccc24)CCC(C)C3)c1 (stereo not drawn) — inhibition (HepG2; MTT; 50 µM, 24 h, 10% FBS): 6.08 ± 0.1%
CCCCn1cc(C(=O)O)c(=O)c2cc(F)c3c(nnn3-c3ccccc3Cl)c21 — IC50 (SW-620; cell growth, SRB; 72 h): 48.4 ± 0.44 µg/mL
COc1c(OC(=O)N(C)c2ccc(Cl)cc2)cc2oc3cc4c(c(O)c3c(=O)c2c1CC=C(C)C)C=CC(C)(C)O4 — inhibition (PC-12; cell proliferation, MTT; 10 µM, 24 h): 0%
Cc1ccc2c(Nc3ccc4ccccc4n3)c3c(nc2c1)CCCC3 — inhibition (HepG2; MTT; 50 µM, 24 h, 10% FBS): -10.1 ± 0.5%
CC(=O)Oc1ccc(Cn2cc(F)c(=O)[nH]c2=O)cc1C1OC(c2ccccc2)=NN1C(C)=O (stereo not drawn) — minimum cytotoxic concentration (HEL fibroblasts; cell morphology, microscopy): 100 µM
C/C(=N\NC(=N)N)c1nnn(-c2ccc(S(=O)(=O)NCC(C)C)cc2)c1C — lytic concentration (erythrocytes; 30% hemolysis): > 10 mg/mL
CCCCCCCCCCCCCCCC(=O)N[C@@H](CCCCN)C(=O)N1CCC[C@H]1C(=O)N[C@H](C(N)=O)C(C)C — HC50 (murine erythrocytes; hemolysis; 1 h): 62.5 µM
Cc1cccc(Nc2c3c(nc4ccccc24)CCCC3)n1 — inhibition (HepG2; MTT; 50 µM, 24 h, 10% FBS): 6.14 ± 0.23%
COC1OC2COC(c3ccccc3)OC2C(NC(=S)SCc2ccccc2)C1O (stereo not drawn) — highest non-cytotoxic concentration (CHO; resazurin; 48 h, 10% FBS): > 200 µg/mL
Cc1ccnc(Nc2c3c(nc4cc(C)ccc24)CCCC3)c1 — inhibition (HepG2; MTT; 50 µM, 24 h, 10% FBS): -30.9 ± 1.16%
N=C(N)NCCC[C@@H](NC(=O)[C@H](N)Cc1c[nH]c2ccccc12)C(=O)N[C@H](CCCCN)C(=O)N[C@H](Cc1c[nH]c2ccccc12)C(=O)N[C@H](CCCNC(=N)N)C(=O)N[C@H](CCCCN)C(=O)N[C@H](Cc1c[nH]c2ccccc12)C(=O)N[C@H](CCCNC(=N)N)C(=O)N[C@H](CCCCN)C(=O)N[C@H](Cc1c[nH]c2ccccc12)C(=O)N[C@H](CCCNC(=N)N)C(=O)N[C@H](CCCCN)C(N)=O — HC10 (mouse red blood cells; 1 h, 37 °C, 8% v/v erythrocytes): > 2050 µM
O=C1C(O)=C(CN2CCNCC2)C(=O)c2ccccc21 — median lethal concentration (BGM (monkey kidney); MTT; 10% FCS; 24 h): ≥ 3670 µM
CCCCn1cc(C(=O)O)c(=O)c2cc(F)c(Nc3cccc(Cl)c3)c([N+](=O)[O-])c21 — IC50 (HCT-116; cell growth or viability, SRB): 77.9 µM
O=C(O)COc1c2c(c(OCC(=O)O)c3c1C1CC3c3cc4c(cc31)C1CC4c3ccccc31)C1CC2c2cc3c(cc21)C1CC3c2ccccc21 — highest non-toxic concentration (TZM-bl; CellTiter-Glo; 2 days): ≤ 250 µM
